Published values gathered from unrelated publications.
Every numbered part comes from another study and shows a few of its results, in no order.

Study 1 — method: protein binding microarray; molecule type: double-stranded DNA, one strand shown; sample: in vitro; tested at: not given; baseline: not given; reading: higher = stronger binding
Target: Histone acetyltransferase KAT6A, both winged helices, GST fusion (KAT6A, Homo sapiens, UniProt Q92794, residues 1-181)
Setting: 8-mer, flanks averaged, mean of 2 arrays, mostly near background
Construct (chain): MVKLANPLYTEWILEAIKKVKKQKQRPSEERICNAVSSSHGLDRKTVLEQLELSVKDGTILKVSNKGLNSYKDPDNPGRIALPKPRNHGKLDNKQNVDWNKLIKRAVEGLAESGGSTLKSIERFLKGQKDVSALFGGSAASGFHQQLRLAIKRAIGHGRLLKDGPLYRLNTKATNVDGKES
| Strand | E-score |
| --- | --- |
| CCATCTGC | -0.0265 |
| ATAATTCA | 0.0188 |
| ATTAGGGG | -0.217 |

Study 2 — method: protein-binding microarray; molecule type: double-stranded DNA, one strand shown; sample: in vitro; tested at: not given; reading: higher = stronger binding
Target: Protein C-ets-1 (ETS1, Homo sapiens, UniProt P14921, residues 1-441, Y397A, full length assumed)
Sequence of UniProt P14921 (whole entry, unmodified, looked up): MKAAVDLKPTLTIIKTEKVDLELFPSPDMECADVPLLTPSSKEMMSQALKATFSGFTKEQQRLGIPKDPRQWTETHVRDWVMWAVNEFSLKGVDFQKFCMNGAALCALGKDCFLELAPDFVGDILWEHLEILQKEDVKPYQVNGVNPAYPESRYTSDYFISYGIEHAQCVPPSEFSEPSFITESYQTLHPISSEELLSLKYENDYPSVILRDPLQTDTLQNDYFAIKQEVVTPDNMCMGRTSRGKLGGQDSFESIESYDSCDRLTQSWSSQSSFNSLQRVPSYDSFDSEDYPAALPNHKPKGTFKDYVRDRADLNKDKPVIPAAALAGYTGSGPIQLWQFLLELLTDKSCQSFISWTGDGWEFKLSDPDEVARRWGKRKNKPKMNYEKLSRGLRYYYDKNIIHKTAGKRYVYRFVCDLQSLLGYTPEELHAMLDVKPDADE
Setting: k-mer, scored over probes, only values ≥0.25
| Strand | E-score |
| --- | --- |
| GTAATGAC | 0.271 |
| AACGGAAA | 0.255 |
| CTTTGTAA | 0.262 |

Mixed results
G3BP1 C-terminal RGG region: Ras GTPase-activating protein-binding protein 1, C-terminal RGG region (G3BP1, Homo sapiens, UniProt Q13283)
Sequence of UniProt Q13283 (whole entry, looked up): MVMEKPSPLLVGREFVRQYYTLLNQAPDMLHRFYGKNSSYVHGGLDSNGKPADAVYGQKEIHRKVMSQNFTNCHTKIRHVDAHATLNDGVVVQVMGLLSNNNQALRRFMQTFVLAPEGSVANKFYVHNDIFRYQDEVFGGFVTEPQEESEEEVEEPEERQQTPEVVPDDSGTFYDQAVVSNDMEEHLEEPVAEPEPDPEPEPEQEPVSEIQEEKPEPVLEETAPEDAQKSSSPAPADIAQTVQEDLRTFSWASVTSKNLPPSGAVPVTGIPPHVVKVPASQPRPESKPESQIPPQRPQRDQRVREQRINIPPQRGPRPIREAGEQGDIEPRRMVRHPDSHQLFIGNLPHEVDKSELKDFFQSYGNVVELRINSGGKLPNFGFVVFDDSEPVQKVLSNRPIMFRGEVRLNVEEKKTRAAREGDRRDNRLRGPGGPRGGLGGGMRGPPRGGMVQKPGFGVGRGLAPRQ
| Substance | target | assay | test system | setting | how to read | quantity | result |
| --- | --- | --- | --- | --- | --- | --- | --- |
| GGGAGUUCUACAGUCCGACGAUCAAGUCCUGUGCUACACAUCGUAUGUACCGAAUCGGAAAAGGGGAAAAGGGGAAAAGGAAAGUAUUAUGUUACGCCGUUCGGAUCUGCACUUGGAAUUCUCGGGUGUCAAGG | G3BP1 C-terminal RGG region | RNA Bind-n-Seq | RNA, in vitro | 1 µM, whole 134-nt RNA, ends assumed, together with: 150 mM KCl | baseline: input library, higher = stronger binding | log2 enrichment | -1.14 |
| PhoQ, residues 284 288 289 292 302 303 SSTLSG | PhoP, residues 12 14 15 18 19 STHWV (Escherichia coli, UniProt P23836) | Sort-seq, refers to: YFP reporter | E. coli | PhoQ-PhoP variant library, together with: 10 µM Mg2+ | baseline: high Mg2+ state, higher = stronger signaling | fold induction | 15.7 |
| GGGAGUUCUACAGUCCGACGAUCCAAGUCCUGUGCUACACAUCGUAUGUACCGAAUCGGGGAAAGGGGAAAGGAAAGGGAAAGUAUUAUGUUACGCCGUUCGGAUCUGCACUUUGGAAUUCUCGGGUGUCAAGG | G3BP1 C-terminal RGG region | RNA Bind-n-Seq | RNA, in vitro | 1 µM, whole 134-nt RNA, ends assumed, together with: 150 mM KCl | baseline: input library, higher = stronger binding | log2 enrichment | -1.23 |

Repeated from above (mixed results):
| Substance | target | assay | test system | setting | how to read | quantity | result |
| --- | --- | --- | --- | --- | --- | --- | --- |
| PhoQ, residues 284 288 289 292 302 303 SSTLSG | PhoP, residues 12 14 15 18 19 STHWV (Escherichia coli, UniProt P23836) | Sort-seq, refers to: YFP reporter | E. coli | PhoQ-PhoP variant library, together with: 10 µM Mg2+ | baseline: high Mg2+ state, higher = stronger signaling | fold induction | 15.7 |
